Published values collected from several papers.
A part holds a random share of what one study measured.

Sample 1 — method: protein-binding microarray; form: double-stranded DNA, one strand shown; sample: in vitro; concentration: not given; direction: higher = stronger binding
Target: Max-binding protein MNT, bHLH-zipper, MAX partner unstated (MNT, Homo sapiens, UniProt Q99583, residues 220-300)
Setting: k-mer, scored over probes, only values ≥0.25
Target sequence (chain): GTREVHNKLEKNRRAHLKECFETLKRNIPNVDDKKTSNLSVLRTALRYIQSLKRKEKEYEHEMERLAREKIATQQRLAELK
`TCGTGTCA` gave an E-score of 0.311.
`CACGACGC` gave an E-score of 0.265.
With `GCGTACAC` the E-score was 0.25.
For `TAACACGA`, the E-score was 0.279.
For `CGTGATCC`, the E-score was 0.285.
The E-score of `GGGCCGCA` is reported as 0.253.
For `CGTGCCGC`, the E-score was 0.376.
`CATGAGGC` has an E-score of 0.363.

Sample 2 — method: protein binding microarray; form: double-stranded DNA, one strand shown; sample: in vitro; concentration: not given; reference: not given; direction: higher = stronger binding
Target: Histone acetyltransferase KAT6A, winged helix 2, GST fusion (KAT6A, Homo sapiens, UniProt Q92794, residues 85-181)
Setting: 8-mer, flanks averaged, mean of 2 arrays, mostly near background
Construct (chain): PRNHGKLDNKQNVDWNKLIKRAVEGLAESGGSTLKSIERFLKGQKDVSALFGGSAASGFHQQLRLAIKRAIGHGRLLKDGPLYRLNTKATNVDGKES
For `AGAACCAC`, the E-score was -0.0433.
`TCCGGAAA` has an E-score of 0.0363.
For `CAACTATC`, the E-score was -0.0415.
`ACCAAAGG` gave an E-score of -0.126.
`ACTATGAC` has an E-score of -0.174.
The E-score of `CGCCGCAG` is reported as 0.143.

Sample 3 — method: aptamer microarray, sandwich; form: DNA with 2'F-ANA; sample: in vitro; concentration: 200 nM; together with: Cy3 exosite-II aptamer, 400 nM; direction: higher = stronger binding; oligonucleotide: GGTTGGTGTGGTTGG
Target: Prothrombin, mature alpha-thrombin (F2, Homo sapiens, UniProt P00734)
Setting: whole 15-mer aptamer, many near background
`2'F-ANA at 2 5 7 8 9 11 12 13 14 15` — result for “mean fluorescence intensity”: 48.3 a.u.
`2'F-ANA at 2 3 4 7 8 9`: “mean fluorescence intensity” 738 a.u.
For `2'F-ANA at 3 5 8 9 11 13 15`, “mean fluorescence intensity” read 119 a.u.
`2'F-ANA at 3 4 6 7 8 10 11 14`: “mean fluorescence intensity” 161 a.u.
For `2'F-ANA at 2 3 4 6 10 13`, “mean fluorescence intensity” read 206 a.u.
`2'F-ANA at 1 4 8 12 13 14`: “mean fluorescence intensity” 63.9 a.u.
Under “mean fluorescence intensity”, `2'F-ANA at 1 3 5 6 7 8 11 14` is recorded as 45.9 a.u.

Other studies, line by line
`PhoQ, residues 284 288 289 292 302 303 SLKLQV` gave a fold induction of 0.666 (PhoP, residues 12 14 15 18 19 LYFRQ (Escherichia coli, UniProt P23836); Sort-seq, item: YFP reporter; E. coli; PhoQ-PhoP variant library, together with: 10 µM Mg2+; reference: high Mg2+ state, higher = stronger signaling).
